# Experimental data from different studies.
# Protocols differ between the studies behind these lines. Numbers after ± are the reported error. Non-standard residues stand in square brackets, D forms with d. Square brackets hold non-standard residues; d marks the D form. Where no end group is shown, it is not given here. Ends that are not written are not given here. No end group written: not given here. [ ]: non-standard residue; d: D form.
# RB1 F897A/L901A/R908A: RB1 F897A/L901A/R908A (Homo sapiens, UniProt P06400)
# UniProt P06400, sequence (whole entry, unmodified, looked up): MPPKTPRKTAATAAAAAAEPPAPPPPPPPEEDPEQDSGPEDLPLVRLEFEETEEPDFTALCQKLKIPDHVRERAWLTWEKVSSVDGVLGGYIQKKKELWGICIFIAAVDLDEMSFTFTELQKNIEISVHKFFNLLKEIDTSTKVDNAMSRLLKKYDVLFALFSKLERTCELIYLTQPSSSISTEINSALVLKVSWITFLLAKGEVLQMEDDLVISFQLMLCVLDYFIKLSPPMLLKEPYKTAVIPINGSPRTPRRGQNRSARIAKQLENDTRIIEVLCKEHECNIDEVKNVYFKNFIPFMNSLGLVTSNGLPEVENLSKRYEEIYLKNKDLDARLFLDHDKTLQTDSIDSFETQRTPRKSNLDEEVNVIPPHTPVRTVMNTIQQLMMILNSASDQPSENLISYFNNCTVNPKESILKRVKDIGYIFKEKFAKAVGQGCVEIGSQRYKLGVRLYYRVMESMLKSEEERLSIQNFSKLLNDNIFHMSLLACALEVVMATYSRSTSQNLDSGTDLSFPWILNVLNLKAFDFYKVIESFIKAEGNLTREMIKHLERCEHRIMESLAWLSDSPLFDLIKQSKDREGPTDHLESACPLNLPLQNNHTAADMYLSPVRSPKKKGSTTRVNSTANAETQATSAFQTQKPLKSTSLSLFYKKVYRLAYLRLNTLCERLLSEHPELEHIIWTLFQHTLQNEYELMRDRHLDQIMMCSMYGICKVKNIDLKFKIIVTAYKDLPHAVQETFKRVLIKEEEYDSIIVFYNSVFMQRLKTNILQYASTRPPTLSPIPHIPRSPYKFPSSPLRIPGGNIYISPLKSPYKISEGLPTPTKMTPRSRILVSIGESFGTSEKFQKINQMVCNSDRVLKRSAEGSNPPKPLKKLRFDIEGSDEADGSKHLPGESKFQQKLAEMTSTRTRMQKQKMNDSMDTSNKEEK
# B1: NTF3 mature (Homo sapiens, UniProt P20783); chain YAEHKSHRGEYSVCDSESLWVTDKSSAIDIRGHQVTVLGEIKTGNSPVKQYFYETRCKEARPVKNGCRGIDDKHWNSQCKTSQTYVRALTSENNKLVGWRWIRIDTSCVCALSRKIGRT
# B2: Spy (Escherichia coli, UniProt P77754); chain ADTTTAAPADAKPMMHHKGKFGPHQDMMFKDLNLTDAQKQQIREIMKGQRDQMKRPPLEERRAMHDIIASDTFDKVKAEAQIAKMEEQRKANMLAHMETQNKIYNILTPEQKKQFNANFEKRLTERPAAKGKMPATAE
# B3: MAP7D3 426-876 (Homo sapiens, UniProt Q8IWC1); chain PKESVKGSPKESMEASPEAMVKASPKTSLEASMEASPKAKARDAPKKSEMDKQALIPIAKKRLSSYTECYKWSSSPENACGLPSPISTNRQIQKNCPPSPLPLISKQSPQTSFPYKIMPIQHTLSVQSASSTVKKKKETVSKTTNRCEALSQRHMIYEESGNKSTAGIMNAEAATKILTELRRLAREQREKEEEERQREEMQQRVIKKSKDMAKEAVGGQAEDHLKLKDGQQQNETKKKKGWLDQEDQEAPLQKGDAKIKAQEEADKRKKEHERIMLQNLQERLERKKRIEEIMKRTRKTDVNASKVTETSSHDIYEEAEADNEESDKDSLNEMFPSAILNGTGSPTKFKMPFNNAKKMTHKLVFLEDGTSQVRKEPKTYFNGDLKNFRQKSMKDTSIQEVVSRPSSKRMTSHTTKTRKADETNTTSRSSAQTKSEGFHDILPKSSDTFRQ
# B4: UGT1A9 (Homo sapiens, UniProt O60656); chain GKLLVVPMDGSHWFTMRSVVEKLILRGHEVVVVMPEVSWQLGRSLNCTVKTYSTSYTLEDLDREFKAFAHAQWKAQVRSIYSLLMGSYNDIFDLFFSNCRSLFKDKKLVEYLKESSFDAVFLDPFDNCGLIVAKYFSLPSVVFARGILCHYLEEGAQCPAPLSYVPRILLGFSDAMTFKERVRNHIMHLEEHLLCHRFFKNALEIASEILQTPVTEYDLYSHTSIWLLRTDFVLDYPKPVMPNMIFIGGINCHQGKPLPMEFEAYINASGEHGIVVFSLGSMVSEIPEKKAMAIADALGKIPQTVLWRYTGTRPSNLANNTILVKWLPQNDLLGHPMTRAFITHAGSHGVYESICNGVPMVMMPLFGDQMDNAKRMETKGAGVTLNVLEMTSEDLENALKAVINDKSYKENIMRLSSLHKDRPVEPLDLAVFWVEFVMRHKGAPHLRPAAHDLTWYQYHSLDVIGFLLAVVLTVAFITFKCCAYGYRKCLGKKGRVKKAHKSKTH
# B5: RAB8A (Homo sapiens, UniProt P61006); sequence looked up; chain MAKTYDYLFKLLLIGDSGVGKTCVLFRFSEDAFNSTFISTIGIDFKIRTIELDGKRIKLQIWDTAGQERFRTITTAYYRGAMGIMLVYDITNEKSFDNIRNWIRNIEEHASADVEKMILGNKCDVNDKRQVSKERGEKLALDYGIKFMETSAKANINVENAFFTLARDIKAKMDKKLEGNSPQGSNQGVKITPDQQKRSSFFRCVLL
# UniProt P01024, sequence (whole entry, looked up): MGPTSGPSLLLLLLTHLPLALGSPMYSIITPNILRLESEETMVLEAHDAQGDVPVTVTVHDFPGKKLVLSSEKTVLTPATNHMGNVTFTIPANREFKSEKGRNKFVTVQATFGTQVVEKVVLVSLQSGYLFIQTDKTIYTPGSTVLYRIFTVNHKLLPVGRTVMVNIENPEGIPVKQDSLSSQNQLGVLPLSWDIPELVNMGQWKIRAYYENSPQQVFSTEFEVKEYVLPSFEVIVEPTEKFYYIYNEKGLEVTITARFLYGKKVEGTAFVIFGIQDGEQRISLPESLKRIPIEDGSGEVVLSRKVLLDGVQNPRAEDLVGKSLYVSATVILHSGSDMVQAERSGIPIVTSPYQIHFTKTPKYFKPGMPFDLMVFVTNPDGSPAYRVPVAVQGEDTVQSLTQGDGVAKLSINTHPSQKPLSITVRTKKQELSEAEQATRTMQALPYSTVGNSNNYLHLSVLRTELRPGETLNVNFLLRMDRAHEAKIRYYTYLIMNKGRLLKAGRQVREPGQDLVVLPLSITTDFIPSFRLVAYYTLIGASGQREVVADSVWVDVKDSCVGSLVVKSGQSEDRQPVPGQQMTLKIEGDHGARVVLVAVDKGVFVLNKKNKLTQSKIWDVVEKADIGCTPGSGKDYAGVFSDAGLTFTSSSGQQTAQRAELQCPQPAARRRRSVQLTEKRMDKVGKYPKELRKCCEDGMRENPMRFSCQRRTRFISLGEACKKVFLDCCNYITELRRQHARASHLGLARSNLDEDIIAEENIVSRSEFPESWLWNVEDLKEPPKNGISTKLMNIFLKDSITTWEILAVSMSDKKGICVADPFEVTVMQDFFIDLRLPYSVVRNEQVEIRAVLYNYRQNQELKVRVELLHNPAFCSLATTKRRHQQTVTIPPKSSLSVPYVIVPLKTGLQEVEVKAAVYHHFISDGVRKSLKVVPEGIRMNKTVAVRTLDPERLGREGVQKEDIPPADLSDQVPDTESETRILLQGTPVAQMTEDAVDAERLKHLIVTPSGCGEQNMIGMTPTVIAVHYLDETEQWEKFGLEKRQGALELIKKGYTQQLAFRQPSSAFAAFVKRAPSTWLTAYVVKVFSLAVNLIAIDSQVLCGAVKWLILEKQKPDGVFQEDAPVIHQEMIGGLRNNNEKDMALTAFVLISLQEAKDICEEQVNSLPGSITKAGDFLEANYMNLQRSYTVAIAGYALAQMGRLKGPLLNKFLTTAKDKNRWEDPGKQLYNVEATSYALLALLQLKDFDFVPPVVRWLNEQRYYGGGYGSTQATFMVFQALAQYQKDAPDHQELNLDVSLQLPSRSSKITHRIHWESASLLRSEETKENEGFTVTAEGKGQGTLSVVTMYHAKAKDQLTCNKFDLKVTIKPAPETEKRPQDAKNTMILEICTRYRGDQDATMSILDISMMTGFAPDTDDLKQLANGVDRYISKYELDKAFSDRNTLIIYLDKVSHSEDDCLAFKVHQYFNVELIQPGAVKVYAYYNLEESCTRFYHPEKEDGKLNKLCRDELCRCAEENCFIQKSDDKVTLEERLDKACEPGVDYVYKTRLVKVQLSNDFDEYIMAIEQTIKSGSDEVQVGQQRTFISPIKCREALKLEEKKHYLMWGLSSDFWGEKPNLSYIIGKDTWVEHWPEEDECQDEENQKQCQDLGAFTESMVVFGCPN
# UniProt P09038, sequence (whole entry, looked up): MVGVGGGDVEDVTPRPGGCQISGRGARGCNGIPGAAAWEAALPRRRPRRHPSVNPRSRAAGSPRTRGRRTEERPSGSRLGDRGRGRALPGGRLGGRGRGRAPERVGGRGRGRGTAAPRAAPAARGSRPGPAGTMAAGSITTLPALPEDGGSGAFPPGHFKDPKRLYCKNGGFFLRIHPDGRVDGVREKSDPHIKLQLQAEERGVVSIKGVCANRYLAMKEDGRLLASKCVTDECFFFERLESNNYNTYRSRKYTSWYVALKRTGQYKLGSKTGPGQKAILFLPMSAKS
# UniProt Q61851, sequence (whole entry, looked up): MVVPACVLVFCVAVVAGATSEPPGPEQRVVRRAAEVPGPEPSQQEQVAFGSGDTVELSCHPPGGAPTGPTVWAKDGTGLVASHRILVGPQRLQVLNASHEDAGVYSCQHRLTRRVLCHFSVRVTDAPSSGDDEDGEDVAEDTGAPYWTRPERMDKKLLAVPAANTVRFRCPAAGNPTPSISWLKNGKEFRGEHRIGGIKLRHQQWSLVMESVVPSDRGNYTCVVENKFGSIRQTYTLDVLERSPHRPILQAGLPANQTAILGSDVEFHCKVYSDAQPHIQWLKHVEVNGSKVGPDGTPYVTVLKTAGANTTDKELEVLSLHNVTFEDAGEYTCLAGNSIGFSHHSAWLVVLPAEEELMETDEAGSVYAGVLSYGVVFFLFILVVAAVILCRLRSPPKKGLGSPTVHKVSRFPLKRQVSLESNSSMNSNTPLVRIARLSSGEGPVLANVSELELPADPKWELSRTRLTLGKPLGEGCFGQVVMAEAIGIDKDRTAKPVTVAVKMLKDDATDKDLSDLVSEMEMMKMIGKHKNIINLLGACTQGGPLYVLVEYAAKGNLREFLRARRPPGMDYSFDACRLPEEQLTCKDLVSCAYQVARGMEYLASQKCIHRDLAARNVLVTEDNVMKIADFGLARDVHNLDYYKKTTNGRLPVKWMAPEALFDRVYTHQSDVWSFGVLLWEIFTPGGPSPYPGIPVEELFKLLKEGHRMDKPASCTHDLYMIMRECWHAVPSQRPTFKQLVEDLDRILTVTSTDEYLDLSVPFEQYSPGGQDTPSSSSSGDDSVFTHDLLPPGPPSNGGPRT
# UniProt P00178, sequence (whole entry, looked up): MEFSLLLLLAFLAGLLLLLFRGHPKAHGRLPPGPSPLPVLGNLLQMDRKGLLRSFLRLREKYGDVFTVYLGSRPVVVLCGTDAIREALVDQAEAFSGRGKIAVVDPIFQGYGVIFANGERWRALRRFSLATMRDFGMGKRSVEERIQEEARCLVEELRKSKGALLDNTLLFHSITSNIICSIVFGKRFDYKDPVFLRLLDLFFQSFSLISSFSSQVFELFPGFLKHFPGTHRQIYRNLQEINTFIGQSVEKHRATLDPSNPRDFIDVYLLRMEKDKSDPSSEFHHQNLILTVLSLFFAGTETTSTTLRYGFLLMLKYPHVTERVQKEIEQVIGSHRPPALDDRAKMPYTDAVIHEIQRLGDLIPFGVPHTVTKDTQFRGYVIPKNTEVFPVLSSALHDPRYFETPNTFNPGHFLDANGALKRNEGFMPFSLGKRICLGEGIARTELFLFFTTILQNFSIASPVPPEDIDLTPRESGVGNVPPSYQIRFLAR
# UniProt P14784, sequence (whole entry, looked up): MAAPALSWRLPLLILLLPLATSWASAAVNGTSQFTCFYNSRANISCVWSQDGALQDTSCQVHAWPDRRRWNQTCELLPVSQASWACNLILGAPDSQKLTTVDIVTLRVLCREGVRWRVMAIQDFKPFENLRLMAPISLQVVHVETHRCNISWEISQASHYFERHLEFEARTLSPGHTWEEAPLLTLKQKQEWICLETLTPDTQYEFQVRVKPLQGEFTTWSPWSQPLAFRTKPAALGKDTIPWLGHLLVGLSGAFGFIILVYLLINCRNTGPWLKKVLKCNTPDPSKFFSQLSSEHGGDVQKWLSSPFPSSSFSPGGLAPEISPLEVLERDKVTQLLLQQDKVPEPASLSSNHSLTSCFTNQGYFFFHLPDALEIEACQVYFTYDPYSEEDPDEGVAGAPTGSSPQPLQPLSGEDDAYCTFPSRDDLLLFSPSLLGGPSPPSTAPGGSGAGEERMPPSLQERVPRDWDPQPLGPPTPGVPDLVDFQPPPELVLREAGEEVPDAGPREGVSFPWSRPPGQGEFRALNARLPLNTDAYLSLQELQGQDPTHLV
# UniProt P17535, sequence (whole entry, looked up): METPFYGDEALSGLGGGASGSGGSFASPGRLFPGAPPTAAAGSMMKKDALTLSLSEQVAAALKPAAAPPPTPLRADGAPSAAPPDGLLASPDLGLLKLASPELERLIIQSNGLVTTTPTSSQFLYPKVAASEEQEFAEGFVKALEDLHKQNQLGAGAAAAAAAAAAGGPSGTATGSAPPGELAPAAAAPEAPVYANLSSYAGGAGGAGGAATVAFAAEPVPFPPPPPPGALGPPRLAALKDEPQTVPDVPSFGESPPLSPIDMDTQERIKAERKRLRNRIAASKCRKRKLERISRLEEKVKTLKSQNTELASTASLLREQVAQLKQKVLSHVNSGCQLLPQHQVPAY
Substance,target or system,test,system,setting,scale,endpoint,value
"Por (Rattus norvegicus, UniProt P00388)","CYP2B4 (Oryctolagus cuniculus, UniProt P00178)","first electron transfer, stopped-flow",nanodiscs,"25 °C, fast phase, anaerobic",,rate constant k1,2.5 s⁻¹
"FGF14 full length, CLuc fusion S226A (Homo sapiens)",CD4/SCN8A/NLuc Nav1.6 C-terminal tail,split-luciferase complementation,HEK293,,higher = more interaction,peak luminescence,10100 RLU
B1 (NTF3 mature),NTRK3 extracellular and transmembrane domains (Homo sapiens),FRET,,380 nM,"reference: without ligand, higher = more stable dimer",dimer stability change,-6.23 kJ/mol
MYSSTDHILNKFLILHYALNPT (peptide),CD274 extracellular domain (Homo sapiens),BLI,peptide,,,koff,0.00146 s⁻¹
Tnfrsf11b CRD (Mus musculus),"Tnfsf11 162-316 (Mus musculus, UniProt O35235-1)",SPR,,,"reference: RANK, higher = slower dissociation",relative off-rate,20 fold
"AR (Homo sapiens, UniProt P10275)","JUND (Homo sapiens, UniProt P17535)",co-IP,"LNCaP, nuclear extract",with: R1881 1 nM,"reference: untreated cells, higher = more complex",increase in AR-JunD complex,3 fold
Crebbp fragment (Mus musculus),"AKT1 T308D/S473D (Homo sapiens, UniProt P31749)",pull-down,,,,percentage recovery,1.67 ± 0.67%
"CALM1 T26C, Alexa Fluor 568 at C26 (sequence not shown)",Camk2d T287A (Rattus norvegicus),FRET,,rapid Ca chelation,,dissociation time constant,569 ms
TDRD3 fragment (Homo sapiens),"histone H3 peptide, symmetric dimethyl R17",fluorescence polarisation,,,reference: aDMA H3R17 peptide,fold weaker affinity,7 fold
PapB (Paenibacillus polymyxa),"PapA-MBP fusion precursor peptide, leader plus core (Paenibacillus polymyxa)",MALDI-TOF-MS,,"in E. coli, six thioether linkages",,mass change,-12 Da
KVAK[pS]PKKAKAW (H1-5 168-178 (Homo sapiens); pS172; pS = N[C@@H](COP(=O)(O)O)C(=O)O),"PIN1 (Homo sapiens, UniProt Q13526)",EXSY NMR,peptide,"1 mM peptide, 25 °C",,exchange rate constant,5.8 s⁻¹
B2 (Spy),Im7 L18A/L19A/L37A/H40W (Escherichia coli),stopped-flow fluorescence,,"pH 7.5, 22 °C, NaCl 25 to 300 mM, high-salt limit",,association rate constant,4.5e+06 M⁻¹ s⁻¹
"ITGB1 whole (Gallus gallus, UniProt P07228)","laminin (Mus musculus, UniProt P19137)",neuron attachment,E8 CG neurons,"90 min, 37 °C, no antibody","reference: poly-D-lysine, higher = more attachment",attachment,87%
"BCL9 HD2 helix, N-acetyl, hydrocarbon staple (Homo sapiens)","CTNNB1 (Homo sapiens, UniProt P35222)","competition with complex, pull-down",,,,IC50,0.135 µM
TIMP2 N-terminal domain S4P/V6G/I35V/S68N/V71I/T99N,"MMP1 100-269 (Homo sapiens, UniProt P03956)","fluorogenic substrate cleavage, inhibitor, enzyme inhibition assay",,apparent,,Ki,0.00953 µM
ETDKE[pY][pY]TVKD (JAK1 1029-1039; pY1034/pY1035; pY = N[C@@H](Cc1ccc(OP(=O)(O)O)cc1)C(=O)O),"PTPN6 243-530 Q252A/C453S (Homo sapiens, UniProt P29350)",ITC,peptide,"pH 8.0, 25 °C, NaCl 100 mM",,molecule per partner,0.9
ACTC1 R312H,heavy meromyosin HMM (Oryctolagus cuniculus),"myosin ATPase activity, steady-state kinetics",,with: ATP 2 mM,,Vmax,18.2 µM/s
"RPA1/RPA2/RPA3 heterotrimer, hyperphosphorylated RPA2","NBN (Homo sapiens, UniProt O60934)",co-IP,,,"reference: RPA, higher = weaker interaction",decrease of interaction,67%
CFH mature protein V62I (Homo sapiens),C3b (UniProt P01024),fI-mediated C3b cleavage,,fluid phase,"reference: fH-Val62, higher = more cofactor activity",cofactor activity,20%
"CCND2/CDK6 fusion, linker (Homo sapiens)",RB1 F897A/L901A/R908A,in vitro kinase assay,,,"reference: wild-type Rb, higher = greater difference",Rb phosphorylation,19 fold
B3 (MAP7D3 426-876),"KIF5B/KLC2 full length, heterotetramer (Homo sapiens)",TIRF,,no microtubules,"reference: without MAP7D3 ct, higher = more recruitment",recruitment,3 fold
B4 (UGT1A9),COc1ccccc1-c1oc2ccccc2c(=O)c1O,steady-state kinetics,,"pH 7.4, 37 °C",,Vmax,0.0038 µmol/min/mg
"IDEYFSEQPLKNLLLSTSEAQIEKCFIIENISTIA (IFNAR1 478-512 E497A (Homo sapiens, UniProt P17181))","TYK2 23-583 (Homo sapiens, UniProt P29597)",differential scanning fluorimetry,peptide,,,apparent Tm reduction,> 5 °C
"F8 (Homo sapiens, UniProt P00451)","C3b (Homo sapiens, UniProt P01024)",flow cytometry,immature MO-DCs,50 nM,"reference: FVIII alone, higher = more endocytosis",endocytosis,1.78 fold
"DLAT L2 domain, lipoylated",Pdk2 T302A (Rattus norvegicus),ITC,,"30 °C, with: ATP 10 mM",,ΔH,-69.5 kJ/mol
"LN[pY]IDLDLV[dPEG8]LST[pY]ASINFQ (IRS1 1170-1178 and 1219-1228, two pY, dPEG8 linker; two pY, dPEG8 linker; pY = N[C@@H](Cc1ccc(OP(=O)(O)O)cc1)C(=O)O; dPEG8 = dPEG8 linker)","PTPN11 1-525 (Homo sapiens, UniProt Q06124)","DiFMUP dephosphorylation, activator",peptide,,,EC50,0.354 µM
"CCND2/CDK4 fusion, linker (Homo sapiens)",RB1 F897A/L901A/R908A,in vitro kinase assay,,,"reference: wild-type Rb, higher = greater difference",Rb phosphorylation,19 fold
MYO19 fragment (Homo sapiens),"RHOT2 (Homo sapiens, UniProt Q8IXI1-1)",mitochondrial localisation,HeLa,,higher = more mitochondrial,mito/cyto ratio,1.3
"Lamb1 (Mus musculus, UniProt P02469)",laminin/entactin complex (Mus musculus),competitive extraction,tissue matrix,15 µM,,laminin extracted fraction,> 50%
IL2 N90R/V91R/T131R (Homo sapiens),"IL2RB (Homo sapiens, UniProt P14784)",flow cytometry,human PBMCs,,"reference: wildtype IL2, higher = greater reduction",pSTAT5+ CD8 T cells,100 fold
B5 (RAB8A),"Myo5a 1260-1853 (Mus musculus, UniProt Q99104)",pull-down,"CHO-IR, lysate","15 min, with: insulin 100 nM","reference: unstimulated DMSO control, higher = more binding",relative binding,1.9 fold
GCVRLHESCLGQQVPCCDPAATCYCQYRGDGMKHCYCR (AgRP variant),"ITGAV/ITGB3 whole, on cells (Homo sapiens)","competition with labeled echistatin, radioligand binding","designed binder, U87MG","3 h, room temperature, with: 125I-echistatin 0.06 nM",,IC50,0.9 µM
"ubiquitin I36A, Cy3B label",MYCBP2 4378-4640 C4520K (Homo sapiens),E2-E3 isopeptide formation,,single turnover,,decrease of RCR activity,50 % decrease
SERPINC1 R45E/R46E/K114E/R129E (Homo sapiens),coagulation factor IXa,steady-state kinetics,,"room temperature, no heparin",,k2,59 M⁻¹ s⁻¹
"FGF2 (Homo sapiens, UniProt P09038)","FGFR3 isoform IIIc (unknown, UniProt Q61851)","cell proliferation, MTT",BaF3-FGFR3c,"20 nM, 48 h, with: chondroitin sulfate C 4.9 µg/mL","reference: FGF 1 with heparin, higher = more proliferation",cell proliferation,2%

# A few entries again:
Substance,target or system,test,system,setting,scale,endpoint,value
IL2 N90R/V91R/T131R (Homo sapiens),"IL2RB (Homo sapiens, UniProt P14784)",flow cytometry,human PBMCs,,"reference: wildtype IL2, higher = greater reduction",pSTAT5+ CD8 T cells,100 fold
B5 (RAB8A),"Myo5a 1260-1853 (Mus musculus, UniProt Q99104)",pull-down,"CHO-IR, lysate","15 min, with: insulin 100 nM","reference: unstimulated DMSO control, higher = more binding",relative binding,1.9 fold
TIMP2 N-terminal domain S4P/V6G/I35V/S68N/V71I/T99N,"MMP1 100-269 (Homo sapiens, UniProt P03956)","fluorogenic substrate cleavage, inhibitor, enzyme inhibition assay",,apparent,,Ki,0.00953 µM
